# Measurements from different studies.
# ± gives the spread as reported.
SMILES,tested on,assay,test system,conditions,endpoint,result
COc1ccc(NC(=O)Cn2cc(COc3ccc(-c4nc5ccccc5c(=O)n4Nc4ccc([N+](=O)[O-])cc4[N+](=O)[O-])cc3OC)nn2)c(OC)c1,mushroom tyrosinase,enzyme activity,,"40 µM, added: L-DOPA",inhibition,101 ± 1.68%
CN1[C@@H]2CC[C@H]1C[C@@H](OC(c1ccccc1)c1ccccc1)C2,Campylobacter concisus,,,1 other congeners,congener production,increased
Cc1ccc(N=Nc2c(N)nn3c(-c4ccc(C)cc4)cc(-c4ccc(OCc5ccccc5)cc4)nc23)cc1,Enterococcus faecalis,broth microdilution,MTCC 0459,,MBC/MIC ratio,4
CCc1nn(C)c2nc(-c3ccc4c(c3)COC4=O)nc(NCc3ccc(F)cc3)c12,Cryptosporidium parvum,"parasite growth, high-content microscopy","HCT-8, Iowa",concentration not given,anti-parasitic activity,inactive
Cc1ccc(-c2cc(-c3ccc(OCc4ccccc4)cc3)nc3c(N=Nc4ccc(F)cc4)c(N)nn23)cc1,Escherichia coli,,ATCC 25955,,MBC/MIC ratio,4
O=C(NCc1ccc(OC(F)(F)F)cc1)c1cn(Cc2ccc(F)cc2)c2ccc(Oc3ccccc3)cc2c1=O,Jurkat,,,72 h,CC50,47.6 ± 10.5 µM
COc1cc(/C=N/NC(=S)N/N=C/c2ccc(C)cc2)ccc1Oc1ccnc2cc(Cl)ccc12,human lysosomal acid alpha-glucosidase,inhibitor,,added: pNPG substrate,IC50,14.8 ± 0.15 µg/mL
OO,MDA-MB-231-LM2-4,JC-1 flow cytometry,,"1 mM, 5 h, positive control",depolarized mitochondria cells,49%
Cc1ccc(N=Nc2c(N)nn3c(-c4ccco4)cc(-c4ccc(OCc5ccccc5)cc4)nc23)cc1,Escherichia coli,,ATCC 25955,,MBC,62.5 µg/mL
CCc1nn(C)c2nc(C3=CCC(C(=O)O)CC3)nc(NCc3ccc(F)cc3)c12 (stereo not drawn),Cryptosporidium parvum,"parasite growth, high-content microscopy","HCT-8, Iowa",concentration not given,anti-parasitic activity,not toxic
O=C(O)c1cn(Cc2ccc(C(F)(F)F)cc2)c2ccc(Oc3ccccc3)cc2c1=O,MDA-MB-468,,,72 h,CC50,> 100 µM
O=C(Nc1cc(-c2ccc(Cl)cc2)[nH]n1)C1CCCCC1,phosphorylase kinase,enzyme activity,,10 µM,remaining activity,75%
CCc1nn(C)c2nc(-c3ccc(P(=O)(O)O)cc3)nc(NCc3ccc(F)cc3)c12,Cryptosporidium parvum,"parasite growth, high-content microscopy","HCT-8, Iowa",concentration not given,anti-parasitic activity,inactive
COCCOc1cnc2ccn([C@H](C)c3nnc4c(F)cc(-c5cnn(C)c5)cn34)c(=O)c2c1,,,patients,"oral, 300 mg once daily, day 1, expansion",t1/2,9.3 h
CCOc1c([C@H](C)n2nc(C)c3c(N)ncnc32)cc(Cl)c(F)c1[C@@H]1CNC(=O)C1,,,"patients with DLBCL, plasma","oral, 20 mg, day 15, monotherapy",half-life geometric mean,9.3 ± 0.979 h

# A few entries again:
SMILES,tested on,assay,test system,conditions,endpoint,result
CCc1nn(C)c2nc(C3=CCC(C(=O)O)CC3)nc(NCc3ccc(F)cc3)c12 (stereo not drawn),Cryptosporidium parvum,"parasite growth, high-content microscopy","HCT-8, Iowa",concentration not given,anti-parasitic activity,not toxic
